Earlier results, collected from citations in different studies.
Numbered parts are unrelated; values within a part may stem from several laboratories.
Sequence of UniProt Q13308 (whole entry, looked up): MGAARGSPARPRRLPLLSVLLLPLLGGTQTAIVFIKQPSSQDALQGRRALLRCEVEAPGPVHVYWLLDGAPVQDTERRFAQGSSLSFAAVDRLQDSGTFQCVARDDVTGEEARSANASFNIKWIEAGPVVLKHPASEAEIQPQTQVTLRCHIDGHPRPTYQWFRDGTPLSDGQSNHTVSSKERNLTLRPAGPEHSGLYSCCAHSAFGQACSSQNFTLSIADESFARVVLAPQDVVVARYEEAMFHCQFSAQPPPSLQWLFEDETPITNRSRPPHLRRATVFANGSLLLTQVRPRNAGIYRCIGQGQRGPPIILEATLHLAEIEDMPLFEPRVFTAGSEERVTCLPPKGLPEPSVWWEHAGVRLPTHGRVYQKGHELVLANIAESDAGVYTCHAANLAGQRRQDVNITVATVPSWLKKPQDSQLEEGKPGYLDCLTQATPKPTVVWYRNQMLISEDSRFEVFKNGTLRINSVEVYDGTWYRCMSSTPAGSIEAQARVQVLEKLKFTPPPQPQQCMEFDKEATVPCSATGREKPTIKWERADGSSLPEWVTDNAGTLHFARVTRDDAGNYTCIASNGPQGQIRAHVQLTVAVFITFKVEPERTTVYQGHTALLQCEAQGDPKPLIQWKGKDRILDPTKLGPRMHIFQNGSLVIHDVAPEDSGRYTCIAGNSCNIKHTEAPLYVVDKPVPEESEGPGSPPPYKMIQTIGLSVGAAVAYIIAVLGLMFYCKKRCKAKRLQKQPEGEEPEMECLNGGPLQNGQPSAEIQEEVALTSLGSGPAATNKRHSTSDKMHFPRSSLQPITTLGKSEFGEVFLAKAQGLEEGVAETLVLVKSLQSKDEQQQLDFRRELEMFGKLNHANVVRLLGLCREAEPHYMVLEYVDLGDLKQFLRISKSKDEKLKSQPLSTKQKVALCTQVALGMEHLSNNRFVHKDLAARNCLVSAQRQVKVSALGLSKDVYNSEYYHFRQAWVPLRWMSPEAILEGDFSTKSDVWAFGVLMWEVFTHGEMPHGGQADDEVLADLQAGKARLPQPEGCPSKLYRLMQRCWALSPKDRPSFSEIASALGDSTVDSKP

Series 1
Organism: Bacillus subtilis
Form: peptide
Quantity: MIC
Molecule = MGWWFPPKTGNAGKAKFKAAAAKWGGLFLAAAKWEANGEWGGFPKGY; result = 3.1 µM
Molecule = MCFPRRSKSVKVKKGGCLRLFLIFFKTFCTKAKTKEIKKKGTKIKIVR; result = 3.1 µM
Molecule = MEAFKKPRPLFLVKLLTRFLEARAGLGSYRIEFIFKKFGVVKFSSLLR; result = 0.8 µM
Molecule = MCFCFKAGPKICRGLQRKKKKKFKYQTSFTKTGFGTLHTKPKSPAR; result = 0.6 µM
Molecule = MWFDRKKFFWPGVCLFLFLFFPRKRFYKFGPEKVFSSRKKYFARKCKCL; result = 6.3 µM

Further values, each from its own experiment
B1: CCL1; sequence looked up; chain KSMQVPFSRCCFSFAEQEIPLRAILCYRNTSSICSNEGLIFKLKRGKEACALDTVGWVQRHRKMLRHCPSKRK
Substance = ATCTAACTGCTGCGCCGCCGGGAAAATACTGTACGGTTAGA (ssDNA); target or system = PTK7 31-1070 (Homo sapiens, UniProt Q13308); test = flow cytometry; conditions = in cells, not purified; quantity = Kd; result = 0.81 nM
Substance = LFDNAMLR; test = isocratic RP-HPLC, C18 column; system = peptide, water/acetonitrile, 0.1% TFA; conditions = 25 °C; quantity = retention coefficient S; result = 17.4
Substance = pegcetacoplan; system = human; conditions = 180 mg single dose, arithmetic mean; quantity = AUC(0-inf); result = 15500 µg·h/mL
Substance = substance P; target or system = NK1 receptor, truncated; how to read = baseline: truncated over full-length; quantity = affinity loss at truncated receptor; result = ~10 fold
Substance = B1 (CCL1); target or system = CCR8 H283A mutant; test = IP accumulation, agonist; quantity = EC50; result = 12 nM
